Measurements of several laboratories.
Target: Serine/threonine-protein kinase pim-2 (PIM2, Homo sapiens, UniProt Q9P1W9)
UniProt Q9P1W9, sequence (whole entry, looked up): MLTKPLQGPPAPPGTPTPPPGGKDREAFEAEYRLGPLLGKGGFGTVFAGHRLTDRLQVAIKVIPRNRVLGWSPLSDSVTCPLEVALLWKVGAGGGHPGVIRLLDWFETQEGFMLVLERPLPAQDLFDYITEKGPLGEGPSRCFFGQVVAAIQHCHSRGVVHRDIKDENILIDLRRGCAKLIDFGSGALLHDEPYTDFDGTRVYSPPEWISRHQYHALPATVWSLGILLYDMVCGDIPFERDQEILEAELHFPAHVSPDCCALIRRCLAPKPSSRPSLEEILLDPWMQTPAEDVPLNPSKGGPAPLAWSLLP

Compound = C[C@H](NCc1ccc(-c2ccc(C(F)(F)F)cc2)cc1)C(N)=O; assay = cell-free assay, competition with immobilised ligand; setting = 1 µM; quantity = inhibition; result = 6%
Compound = CS(C)(=O)=Nc1ccc(-c2ccc(-c3nc4cc(O[C@@H]5CO[C@H]6[C@@H]5OC[C@H]6O)[nH]c4cc3F)cc2)cc1; assay = enzyme activity, inhibitor; setting = 10 µM; quantity = inhibition; result = 0%
Compound = CC(C)[C@H]1NC(=O)C[C@H]2/C=C/CCSSC[C@@H](NC1=O)C(=O)N[C@H](Cc1cccc3ccccc13)C(=O)NCC(=O)O2; assay = enzyme activity, inhibitor; setting = 10 µM; quantity = inhibition; result = 1.3%
Compound = Nc1ccc(/C=C/C(=O)N2CCc3c(oc4c(-c5ccc(F)cc5)cc(-c5ccc(C(=O)N6CCC(F)(F)CC6)cn5)cc34)C2)cn1; assay = binding, competition with immobilised ligand; setting = 1 µM; quantity = remaining binding; result = 100%
Compound = CN(/N=C/c1ccccc1C(=O)O)c1nc(-c2ccccc2Cl)cs1; assay = enzyme activity, inhibitor; setting = 1 µM; quantity = inhibition; result = -15.2%
Compound = CCOC(=O)[C@@H]1Cc2c(cc([N+](=O)[O-])cc2[N+](=O)[O-])[C@H](O)[C@]12C(=O)Nc1ccc(Br)cc12; assay = binding, competition with immobilised ligand; setting = 0.1 µM; quantity = remaining binding; result = 52%
Compound = O=C1NC(=O)c2c1c1cc(F)c[n+]3c1c1c2c2cc(O)ccc2[n]1[Ru-4]312([N]=C=S)[S+]3CC[S+]1CC[S+]2CC3 (stereo not drawn); assay = enzyme activity; setting = 100 nM, human enzyme, together with: 10 µM ATP; how to read = relative to: untreated; quantity = remaining activity; result = 3%
Compound = N[C@H](C(=O)N1CCCC1)C1CCN(c2nccc3c(-c4ncc(Cl)cc4Cl)cccc23)CC1; assay = kinase activity, inhibitor; setting = 10 µM, together with: ATP 1 mM; quantity = inhibition; result = 5.5%
Compound = O=C(O)c1ccccc1/C=N/Nc1nc(-c2ccccc2Cl)cs1; assay = enzyme activity, inhibitor; setting = 1 µM; quantity = inhibition; result = -6.91%

Some of these lines once more:
Compound = CC(C)[C@H]1NC(=O)C[C@H]2/C=C/CCSSC[C@@H](NC1=O)C(=O)N[C@H](Cc1cccc3ccccc13)C(=O)NCC(=O)O2; assay = enzyme activity, inhibitor; setting = 10 µM; quantity = inhibition; result = 1.3%
